Results collected from several papers.
Compare with care: the assays were run in different laboratories. ± gives the spread as reported. Non-standard residues stand in square brackets, D forms with d. No end group written: not given here.
CHRM1: Muscarinic acetylcholine receptor M1 (CHRM1, Homo sapiens, UniProt P11229)
UniProt P11229, sequence (whole entry, looked up): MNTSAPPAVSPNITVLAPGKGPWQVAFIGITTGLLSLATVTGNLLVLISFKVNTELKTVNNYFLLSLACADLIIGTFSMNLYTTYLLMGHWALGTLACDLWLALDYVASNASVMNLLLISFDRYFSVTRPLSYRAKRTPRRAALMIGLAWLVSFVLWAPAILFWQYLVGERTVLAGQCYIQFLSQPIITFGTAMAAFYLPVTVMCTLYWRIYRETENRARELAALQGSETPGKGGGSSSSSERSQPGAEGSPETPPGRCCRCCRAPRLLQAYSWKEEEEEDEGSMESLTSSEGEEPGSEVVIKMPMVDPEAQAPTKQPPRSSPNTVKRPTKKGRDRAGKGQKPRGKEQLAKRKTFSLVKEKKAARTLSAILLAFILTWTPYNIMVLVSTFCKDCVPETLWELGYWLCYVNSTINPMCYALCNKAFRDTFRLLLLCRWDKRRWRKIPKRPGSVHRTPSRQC
CHRM4: Muscarinic acetylcholine receptor M4 (CHRM4, Homo sapiens, UniProt P08173)
UniProt P08173, sequence (whole entry, looked up): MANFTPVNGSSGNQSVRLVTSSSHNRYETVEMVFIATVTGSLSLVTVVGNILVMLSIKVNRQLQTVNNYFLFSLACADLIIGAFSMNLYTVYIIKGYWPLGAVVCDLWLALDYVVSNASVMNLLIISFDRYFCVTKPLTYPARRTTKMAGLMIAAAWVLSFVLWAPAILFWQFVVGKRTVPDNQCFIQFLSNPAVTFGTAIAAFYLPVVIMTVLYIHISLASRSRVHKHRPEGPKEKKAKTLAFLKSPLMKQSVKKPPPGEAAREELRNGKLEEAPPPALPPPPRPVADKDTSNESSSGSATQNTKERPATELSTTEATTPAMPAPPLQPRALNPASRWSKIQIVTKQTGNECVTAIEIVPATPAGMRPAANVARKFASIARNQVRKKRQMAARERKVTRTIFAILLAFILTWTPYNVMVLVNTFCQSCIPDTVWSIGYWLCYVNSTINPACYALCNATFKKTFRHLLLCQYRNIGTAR
T1: ssRNA, 16S rRNA A-site model (Escherichia coli); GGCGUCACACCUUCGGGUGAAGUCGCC
T2: DNA hairpin, hairpin; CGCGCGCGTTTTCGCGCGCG
B1: N-βAla, stapled; βAla = NCCC(=O)O; chain [βAla]RTKQEARKSTGG (also: sidechain bridge or staple (positions not given here))
UniProt P31424, sequence (whole entry, looked up): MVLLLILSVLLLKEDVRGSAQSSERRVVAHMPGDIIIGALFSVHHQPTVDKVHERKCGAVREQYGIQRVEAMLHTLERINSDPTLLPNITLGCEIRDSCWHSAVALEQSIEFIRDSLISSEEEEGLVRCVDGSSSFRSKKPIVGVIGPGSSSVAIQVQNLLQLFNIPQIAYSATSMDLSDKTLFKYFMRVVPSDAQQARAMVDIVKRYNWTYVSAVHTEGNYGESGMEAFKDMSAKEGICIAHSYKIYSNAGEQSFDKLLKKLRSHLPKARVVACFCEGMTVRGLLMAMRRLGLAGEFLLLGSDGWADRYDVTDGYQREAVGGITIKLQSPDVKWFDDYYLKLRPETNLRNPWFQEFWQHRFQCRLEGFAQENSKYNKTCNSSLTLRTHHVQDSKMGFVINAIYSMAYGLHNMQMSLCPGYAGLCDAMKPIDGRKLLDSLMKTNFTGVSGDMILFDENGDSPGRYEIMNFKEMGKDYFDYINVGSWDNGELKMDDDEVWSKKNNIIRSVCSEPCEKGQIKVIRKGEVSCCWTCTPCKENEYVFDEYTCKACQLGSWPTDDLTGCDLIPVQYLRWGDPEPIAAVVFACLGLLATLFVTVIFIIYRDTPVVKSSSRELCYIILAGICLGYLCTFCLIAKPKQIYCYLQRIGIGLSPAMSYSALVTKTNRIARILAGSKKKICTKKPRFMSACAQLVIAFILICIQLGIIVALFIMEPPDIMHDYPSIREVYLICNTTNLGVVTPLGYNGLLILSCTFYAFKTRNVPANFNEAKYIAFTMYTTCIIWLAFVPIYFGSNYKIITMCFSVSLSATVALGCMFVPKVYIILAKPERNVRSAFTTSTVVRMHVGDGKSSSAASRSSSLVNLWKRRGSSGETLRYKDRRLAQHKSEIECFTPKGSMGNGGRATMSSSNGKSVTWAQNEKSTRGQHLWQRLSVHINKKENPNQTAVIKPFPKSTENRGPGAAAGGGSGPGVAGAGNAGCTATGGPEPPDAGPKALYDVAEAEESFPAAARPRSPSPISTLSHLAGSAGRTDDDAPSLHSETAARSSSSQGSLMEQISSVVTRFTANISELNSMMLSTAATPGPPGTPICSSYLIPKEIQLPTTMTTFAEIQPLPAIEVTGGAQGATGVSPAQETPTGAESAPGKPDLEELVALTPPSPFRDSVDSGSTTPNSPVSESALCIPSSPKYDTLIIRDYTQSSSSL
UniProt P11087, sequence (whole entry, looked up): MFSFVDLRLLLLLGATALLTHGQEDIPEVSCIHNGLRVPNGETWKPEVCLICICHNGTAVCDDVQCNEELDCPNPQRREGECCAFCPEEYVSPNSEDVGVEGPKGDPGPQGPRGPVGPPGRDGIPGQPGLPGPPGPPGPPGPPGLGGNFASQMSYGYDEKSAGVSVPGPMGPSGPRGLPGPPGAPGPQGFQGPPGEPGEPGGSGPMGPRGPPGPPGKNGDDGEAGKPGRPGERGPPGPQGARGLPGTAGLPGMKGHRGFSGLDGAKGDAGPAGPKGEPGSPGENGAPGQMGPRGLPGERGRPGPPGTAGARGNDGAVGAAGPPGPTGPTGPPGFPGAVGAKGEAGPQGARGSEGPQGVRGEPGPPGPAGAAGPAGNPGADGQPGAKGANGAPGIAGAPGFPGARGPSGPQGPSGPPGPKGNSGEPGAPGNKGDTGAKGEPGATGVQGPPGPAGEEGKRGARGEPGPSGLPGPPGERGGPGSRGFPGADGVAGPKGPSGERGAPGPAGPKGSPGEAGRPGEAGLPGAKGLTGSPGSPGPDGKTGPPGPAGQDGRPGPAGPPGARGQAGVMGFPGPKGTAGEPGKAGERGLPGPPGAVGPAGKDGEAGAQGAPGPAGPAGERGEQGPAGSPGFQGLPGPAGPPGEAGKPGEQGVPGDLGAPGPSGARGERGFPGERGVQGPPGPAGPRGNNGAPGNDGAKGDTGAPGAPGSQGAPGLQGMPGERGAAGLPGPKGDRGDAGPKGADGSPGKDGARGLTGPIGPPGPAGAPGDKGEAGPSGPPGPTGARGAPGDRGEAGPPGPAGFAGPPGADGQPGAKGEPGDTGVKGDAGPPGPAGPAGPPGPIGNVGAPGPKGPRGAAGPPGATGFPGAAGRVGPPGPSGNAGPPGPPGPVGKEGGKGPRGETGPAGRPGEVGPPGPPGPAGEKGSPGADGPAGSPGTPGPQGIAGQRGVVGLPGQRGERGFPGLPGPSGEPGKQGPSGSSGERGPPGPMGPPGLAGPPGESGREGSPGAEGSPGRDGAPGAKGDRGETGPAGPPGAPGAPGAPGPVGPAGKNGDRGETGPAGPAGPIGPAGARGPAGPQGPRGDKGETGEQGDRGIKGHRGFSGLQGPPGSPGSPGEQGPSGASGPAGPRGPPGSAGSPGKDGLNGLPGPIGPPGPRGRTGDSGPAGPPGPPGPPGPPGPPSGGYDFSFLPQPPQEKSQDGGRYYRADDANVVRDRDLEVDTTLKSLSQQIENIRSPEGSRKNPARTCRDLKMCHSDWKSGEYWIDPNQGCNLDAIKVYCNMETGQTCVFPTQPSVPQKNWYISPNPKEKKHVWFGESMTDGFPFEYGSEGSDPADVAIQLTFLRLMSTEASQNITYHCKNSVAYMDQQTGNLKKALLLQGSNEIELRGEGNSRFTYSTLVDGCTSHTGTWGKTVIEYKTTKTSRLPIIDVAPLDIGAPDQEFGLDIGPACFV
UniProt P50391, sequence (whole entry, looked up): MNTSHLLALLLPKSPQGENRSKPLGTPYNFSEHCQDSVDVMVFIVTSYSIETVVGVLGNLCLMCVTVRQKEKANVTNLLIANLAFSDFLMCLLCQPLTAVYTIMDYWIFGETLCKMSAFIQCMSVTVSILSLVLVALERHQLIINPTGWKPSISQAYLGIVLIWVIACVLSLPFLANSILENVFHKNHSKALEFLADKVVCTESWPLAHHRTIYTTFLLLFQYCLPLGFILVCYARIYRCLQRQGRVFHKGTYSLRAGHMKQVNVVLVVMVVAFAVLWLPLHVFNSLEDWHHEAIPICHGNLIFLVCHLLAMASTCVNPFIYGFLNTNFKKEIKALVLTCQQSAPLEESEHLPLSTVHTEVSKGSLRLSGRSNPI
UniProt P42336, sequence (whole entry, looked up): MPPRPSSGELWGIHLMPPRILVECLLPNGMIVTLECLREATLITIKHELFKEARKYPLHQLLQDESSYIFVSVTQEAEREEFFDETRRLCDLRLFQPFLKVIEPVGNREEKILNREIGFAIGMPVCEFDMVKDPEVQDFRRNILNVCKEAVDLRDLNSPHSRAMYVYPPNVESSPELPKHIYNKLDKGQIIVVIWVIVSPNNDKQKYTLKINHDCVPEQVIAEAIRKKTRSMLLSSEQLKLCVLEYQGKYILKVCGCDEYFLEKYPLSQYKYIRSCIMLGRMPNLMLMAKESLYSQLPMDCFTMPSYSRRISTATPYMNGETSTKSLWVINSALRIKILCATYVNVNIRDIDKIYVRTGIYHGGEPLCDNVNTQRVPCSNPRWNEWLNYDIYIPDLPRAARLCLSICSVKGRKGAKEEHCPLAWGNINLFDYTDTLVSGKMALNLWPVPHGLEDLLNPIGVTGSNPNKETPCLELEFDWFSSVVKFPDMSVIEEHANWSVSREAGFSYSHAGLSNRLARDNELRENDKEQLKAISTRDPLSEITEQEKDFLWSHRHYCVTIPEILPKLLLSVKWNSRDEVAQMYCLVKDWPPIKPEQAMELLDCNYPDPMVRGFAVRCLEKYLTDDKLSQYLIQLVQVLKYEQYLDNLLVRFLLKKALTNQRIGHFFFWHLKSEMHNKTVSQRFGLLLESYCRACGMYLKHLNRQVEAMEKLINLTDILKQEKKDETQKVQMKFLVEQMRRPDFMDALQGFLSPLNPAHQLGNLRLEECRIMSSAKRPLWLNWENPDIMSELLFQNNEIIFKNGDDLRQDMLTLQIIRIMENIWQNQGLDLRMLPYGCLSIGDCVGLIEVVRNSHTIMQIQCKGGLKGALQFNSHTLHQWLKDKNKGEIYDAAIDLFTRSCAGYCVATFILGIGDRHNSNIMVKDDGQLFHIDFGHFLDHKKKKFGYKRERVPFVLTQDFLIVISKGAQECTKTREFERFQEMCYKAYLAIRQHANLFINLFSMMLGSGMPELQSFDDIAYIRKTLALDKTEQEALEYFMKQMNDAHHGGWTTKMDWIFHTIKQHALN

O=[N+]([O-])c1ccc2[nH]c(-c3ccccc3)cc2c1 — viability (RAW264.7; sulforhodamine B; 50 µM, 20 h; reference: vehicle): 81.7 ± 3.4%
O=c1cc(-c2ccccc2)oc2cc(O)c(O)c(O)c12 — IC50 ratio (KDM4E (Homo sapiens, UniProt B2RXH2); inhibitor, FDH-coupled; reference: 20 µM over 2.5 µM ferrous ammonium sulfate): 3.9
COc1ccc(Cn2cc(C(=O)O)c(=O)c3ccccc32)cc1 — log α (cooperativity) (CHRM1; IP1 accumulation, positive allosteric modulator, operational allosteric model; human cells; pKB fixed to published value, added: acetylcholine): 1.6 ± 0.09
Nc1nc2c(ncn2[C@@H]2O[C@H](COP(=O)(O)OP(=O)(O)O[C@H]3O[C@H](CO)[C@@H](O)[C@H](O)[C@@H]3O)[C@@H](O)[C@H]2O)c(=O)[nH]1 — substrate inhibition constant (GDP-mannose 4,6-dehydratase (gmd, Pseudomonas aeruginosa, UniProt Q51366); substrate, capillary electrophoresis; 5 min, 37 °C, no MgCl2): 2.86 ± 1.31 µM
COC(=O)c1scc(C)c1NC(=O)C(C)N1CCN(C)CC1 (centres unmarked) — capacity factor k′ (SCN10A (Homo sapiens, UniProt Q9Y5Y9); cell membrane chromatography; higher = stronger binding): 49
COc1ccc(C)c2sc(NS(=O)(=O)c3ccc4occc4c3)nc12 — activity (CHRM4; calcium mobilization, positive allosteric modulator; CHO expressing hM4 and Gqi5; concentration not given, added: acetylcholine EC20): inactive
NC[C@@H]1O[C@H](O[C@H]2[C@@H](O)[C@H](O[C@@H]3[C@@H](O)[C@H](N)C[C@H](N)[C@H]3O[C@H]3O[C@H](CN)[C@@H](O)[C@H](O)[C@H]3N)O[C@@H]2CO)[C@H](N)[C@@H](O)[C@@H]1O — IC50 (T1, ssRNA, 16S rRNA A-site model (Escherichia coli); competition with F-neo, competitor, fluorescence displacement; pH 7.0, NaCl 50 mM, added: F-neo 0.1 µM): 89 nM
O=C(O)[C@H]1O[C@@H](Oc2ccc3c(=O)c(O)c(-c4ccc(O)cc4)oc3c2)[C@H](O)[C@@H](O)[C@@H]1O — Ksi (UGT1A1 (Homo sapiens, UniProt P22309); glucuronidation, substrate, refers to: 3,7,4'-trihydroxyflavone glucuronide): 1.26 ± 0.54 µM
COc1ccc(C)c2sc(NC(=O)NCc3ccncc3)nc12 — activity (CHRM4; calcium mobilization, positive allosteric modulator; CHO expressing hM4 and Gqi5; concentration not given, added: acetylcholine EC20): inactive
OCCN(CCO)c1nc(N2CCCCC2)c2nc(N(CCO)CCO)nc(N3CCCCC3)c2n1 — concentration for maximal inhibition (TSPO (Homo sapiens, UniProt P30536); binding, confocal microscopy; U-87 MG mitochondrial fragments; pH 5.9, added: PIX 1 µM): 0.125 µM
CIKVAVS — maximum inhibition (human polyclonal IgM rheumatoid factor; binding to mAb II-481; peptide; combined CDR peptides, serum CLAU): 0%
Cn1cc(-c2ccc(COc3ccccc3-c3cc(=O)n(C4CCCCC4O)cn3)cc2)cn1 (centres unmarked) — change in baseline activity (CHRM1; allosteric agonist, IP1 accumulation; CHO-M1 cells; 10 µM, unit not given; reference: maximum ACh response): 85.3 ± 2.4
Cc1ccc(O)c([C@H](CCN(C(C)C)C(C)C)c2ccccc2)c1 — Hill coefficient (SCN5A (Homo sapiens, UniProt Q14524); sodium current, inhibitor, IonWorks Quattro): 1.08
COc1cccc(C#Cc2ccc(C)cn2)c1 — pKB (Grm5 (Rattus norvegicus, UniProt P31424); calcium mobilization, negative allosteric modulator; 30 min, added: glutamate): 6.72 ± 0.26 -log M
O=C(O)c1ccc(COc2ccccc2-c2cc(=O)n(C3CCCCC3O)cn2)cc1 (centres unmarked) — change in baseline activity (CHRM1; allosteric agonist, IP1 accumulation; CHO-M1 cells; 1 µM, unit not given; reference: maximum ACh response): -6.7 ± 2.8
CN(c1ccccc1Cl)S(=O)(=O)C1CC2OC1C(c1ccc(O)cc1)=C2c1ccc(O)cc1 (centres unmarked) — efficacy (ESR2 (Homo sapiens, UniProt Q92731); reporter gene, antagonist; HepG2; added: estradiol 10 nM; reference: E2 response, negative is inverse agonism): -24 ± 3%
CC(C)C[C@H](NC(=O)[C@@H]1CSSC[C@H](NC(=O)[C@H](Cc2c[nH]cn2)NC(=O)[C@H](Cc2c[nH]c3ccccc23)NC(=O)[C@H](CCCCNC(=O)CNC(=O)CCC(C(=O)O)N2CCN(CC(=O)O)CCN(CC(=O)O)CC2)NC(=O)CCC(C(=O)O)N2CCN(CC(=O)O)CCN(CC(=O)O)CC2)C(=O)N[C@@H]([C@@H](C)O)C(=O)N[C@@H]([C@@H](C)O)C(=O)N[C@@H](CCCCNC(=O)CNC(=O)CCC(C(=O)O)N2CCN(CC(=O)O)CCN(CC(=O)O)CC2)C(=O)N[C@@H](Cc2ccccc2)C(=O)N2CCC[C@H]2C(=O)N[C@@H](Cc2c[nH]cn2)C(=O)N[C@@H](Cc2c[nH]cn2)C(=O)N[C@@H](Cc2ccc(O)cc2)C(=O)N1)C(=O)N[C@@H](Cc1ccc(O)cc1)C(=O)N[C@@H](Cc1ccc(-c2ccccc2)cc1)C(N)=O (some centres unmarked) [gallium-68 labelled] — lung uptake (Col1a1/Col1a2 (Mus musculus, UniProt P11087+Q01149); ex vivo gamma counting; mouse bleomycin pulmonary fibrosis, lung; dose not given, 150 min post injection, bleomycin 2.5 U/kg, day 7): 0.028 ± 0.005 %ID/lung
CCCc1nc2ccccc2n1Cc1ccc(-c2ccccc2C(=O)O)cc1 — Emax (PPARG (Homo sapiens, UniProt P37231); COS-7; 10 µM, 39 h): 59.4%
CCCCCCCCCCCCCCCC(=O)N[C@@H](CCC(=O)NCCCC[C@H](NC(=O)[C@H](CCC(=O)O)NC(=O)[C@@H]1CCCN1C(=O)[C@@H](NC(=O)[C@H](C)NC(=O)[C@H](CC(N)=O)NC(=O)[C@H](CC(=O)O)NC(=O)CNC(=O)[C@@H]1CCCN1C(=O)[C@H](Cc1ccc(O)cc1)NC(=O)[C@@H](NC(=O)[C@@H]1CCCN1C(=O)[C@H](CCC(=O)O)NC(=O)[C@H](CC(C)C)NC(=O)[C@@H]1CCCN1C(=O)[C@H](C)NC(=O)c1ccc2c(c1)C(=O)OC21c2ccc(O)cc2Oc2cc(O)ccc21)C(C)C)[C@@H](C)O)C(=O)N[C@@H](CCSC)C(=O)N[C@@H](C)C(=O)N[C@@H](CCC(N)=O)C(=O)N[C@@H](Cc1ccc(O)cc1)C(=O)N[C@@H](C)C(=O)N[C@@H](C)C(=O)N[C@@H](CC(=O)O)C(=O)N[C@@H](CC(C)C)C(=O)N[C@@H](CCCNC(=N)N)C(=O)N[C@@H](CCCNC(=N)N)C(=O)N[C@@H](Cc1ccc(O)cc1)C(=O)N[C@H](C(=O)N[C@@H](CC(N)=O)C(=O)N[C@@H](CCSC)C(=O)N[C@@H](CC(C)C)C(=O)N[C@H](C(=O)N[C@@H](CCCNC(=N)N)C(=O)N1CCC[C@H]1C(=O)N[C@@H](CCCNC(=N)N)C(=O)N[C@@H](Cc1ccc(O)cc1)C(N)=O)[C@@H](C)O)[C@@H](C)CC)C(=O)O — specific binding (NPY4R (Homo sapiens, UniProt P50391); radioligand displacement; COS-7 transiently expressing; 1 µM, 90 min, room temperature, added: [3H]-hPP 1 nM; reference: total binding): 36%
CCCCCCCCCCCCCCCCOc1ccc(/C=C/C(O)=C/C(=O)/C=C/c2ccc(O)c(OC)c2)cc1OC — emission maximum (Protein kinase C theta type, C1B domain (Mus musculus, UniProt Q02111); buffer; 5×1 µM, 1 h, 25 °C, protein excess): 561 nm
c1ccc(-c2cc3ccccc3[nH]2)cc1 — inhibition (RAW264.7; NO release, inhibitor, Griess; 50 µM, 20 h, LPS-stimulated): 79%
COc1ccc(C)c2sc(NS(=O)(=O)c3cccc(Cl)c3)nc12 — activity (CHRM4; calcium mobilization, positive allosteric modulator; CHO expressing hM4 and Gqi5; concentration not given, added: acetylcholine EC20): inactive
Tumor necrosis factor alpha — current share attributed to channel (Epithelial sodium channel subunit alpha, with beta, gamma subunits (Homo sapiens, UniProt P37088); activator, whole-cell patch clamp; A549; concentration not given, holding potential -100 mV): 93.4 ± 1.9%
Cn1cc(-c2ccc(COc3ccccc3-c3cc(=O)n(C4CCCCC4O)cn3)c(F)c2)cn1 (centres unmarked) — ΔpEC50 of ACh (CHRM1; positive allosteric modulator, IP1 accumulation; CHO-M1 cells; 10 µM, 60 min, 37 °C, added: ACh; reference: ACh alone, higher = stronger potentiation): 0.69 ± 0.62 log units
C=CC(=O)N1CCC(COCC(=O)N2CCN(c3nc(-c4cnc(N)nc4C(F)F)nc(N4CCOC[C@@H]4C)n3)CC2)CC1 — kinact/KI (PIK3CA (Homo sapiens, UniProt P42336); covalent inhibitor): > 200000 M⁻¹ s⁻¹
B1 — methylation conversion (SETD7 (Homo sapiens, UniProt Q8WTS6); peptide methylation, substrate, MALDI-TOF MS; 10 µM, 3 h, pH 8.0, 37 °C, enzyme 500 nM, added: SAM 30 µM): ≥ 90%
N=C(N)Nc1ccc(Nc2ccc(NC(=N)N)cc2)cc1 — binding (T2, DNA hairpin, hairpin; SPR; 8 µM, pH 6.25, 25 °C, Na+ 100 mM, too weak to fit): binds weakly
O=C(c1cccc(-c2ccc(-c3cn(C(=O)N4CCCCC4c4ccccc4)nn3)cc2)c1)N1CCCCC1 (centres unmarked) — dose for complete inhibition (Abhd6 (Mus musculus, UniProt Q8R2Y0); inhibitor, competitive ABPP; mouse, liver; oral): 10 to 40 mg/kg
Cc1ccc(COc2ccccc2-c2cc(=O)n(C3CCCCC3O)cn2)cc1 (centres unmarked) — change in baseline activity (CHRM1; allosteric agonist, IP1 accumulation; CHO-M1 cells; 1 µM, unit not given; reference: maximum ACh response): -6.4 ± 3.9

Excerpt of the above:
B1 — methylation conversion (SETD7 (Homo sapiens, UniProt Q8WTS6); peptide methylation, substrate, MALDI-TOF MS; 10 µM, 3 h, pH 8.0, 37 °C, enzyme 500 nM, added: SAM 30 µM): ≥ 90%
N=C(N)Nc1ccc(Nc2ccc(NC(=N)N)cc2)cc1 — binding (T2, DNA hairpin, hairpin; SPR; 8 µM, pH 6.25, 25 °C, Na+ 100 mM, too weak to fit): binds weakly
COc1ccc(C)c2sc(NC(=O)NCc3ccncc3)nc12 — activity (CHRM4; calcium mobilization, positive allosteric modulator; CHO expressing hM4 and Gqi5; concentration not given, added: acetylcholine EC20): inactive
C=CC(=O)N1CCC(COCC(=O)N2CCN(c3nc(-c4cnc(N)nc4C(F)F)nc(N4CCOC[C@@H]4C)n3)CC2)CC1 — kinact/KI (PIK3CA (Homo sapiens, UniProt P42336); covalent inhibitor): > 200000 M⁻¹ s⁻¹
